Experimental data pooled from the literature.
Compare with care: the assays were run in different laboratories. Numbers after ± are the reported error.
Adhesin FmlH lectin domain: Adhesin FmlH, lectin domain (Escherichia coli, UniProt Q1RBS0)
PLG: Plasminogen (PLG, Homo sapiens, UniProt P00747)
Sequence of UniProt P00747 (whole entry, looked up): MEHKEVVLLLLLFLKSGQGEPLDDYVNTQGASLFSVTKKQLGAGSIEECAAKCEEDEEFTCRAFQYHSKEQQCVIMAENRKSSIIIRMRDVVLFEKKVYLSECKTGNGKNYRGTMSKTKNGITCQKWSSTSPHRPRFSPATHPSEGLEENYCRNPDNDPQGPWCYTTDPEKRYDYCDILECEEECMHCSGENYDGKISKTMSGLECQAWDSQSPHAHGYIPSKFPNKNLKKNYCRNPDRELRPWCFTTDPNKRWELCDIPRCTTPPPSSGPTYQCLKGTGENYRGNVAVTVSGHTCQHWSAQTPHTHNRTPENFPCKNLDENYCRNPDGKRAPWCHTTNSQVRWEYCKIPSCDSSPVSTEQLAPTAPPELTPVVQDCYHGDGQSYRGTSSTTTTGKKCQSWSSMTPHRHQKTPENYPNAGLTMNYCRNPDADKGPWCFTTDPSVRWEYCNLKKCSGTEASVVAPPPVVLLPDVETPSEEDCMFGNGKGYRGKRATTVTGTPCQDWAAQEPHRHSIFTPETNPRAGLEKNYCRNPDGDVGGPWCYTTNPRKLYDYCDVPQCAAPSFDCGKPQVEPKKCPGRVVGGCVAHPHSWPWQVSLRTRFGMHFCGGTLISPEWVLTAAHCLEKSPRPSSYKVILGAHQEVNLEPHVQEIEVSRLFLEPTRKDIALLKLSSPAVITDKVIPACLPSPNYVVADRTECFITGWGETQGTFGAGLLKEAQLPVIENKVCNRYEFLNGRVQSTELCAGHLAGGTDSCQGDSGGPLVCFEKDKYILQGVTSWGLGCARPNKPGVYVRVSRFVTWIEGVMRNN
PTGS1: Prostaglandin G/H synthase 1 (PTGS1, Ovis aries, UniProt P05979)
Sequence of UniProt P05979 (whole entry, looked up): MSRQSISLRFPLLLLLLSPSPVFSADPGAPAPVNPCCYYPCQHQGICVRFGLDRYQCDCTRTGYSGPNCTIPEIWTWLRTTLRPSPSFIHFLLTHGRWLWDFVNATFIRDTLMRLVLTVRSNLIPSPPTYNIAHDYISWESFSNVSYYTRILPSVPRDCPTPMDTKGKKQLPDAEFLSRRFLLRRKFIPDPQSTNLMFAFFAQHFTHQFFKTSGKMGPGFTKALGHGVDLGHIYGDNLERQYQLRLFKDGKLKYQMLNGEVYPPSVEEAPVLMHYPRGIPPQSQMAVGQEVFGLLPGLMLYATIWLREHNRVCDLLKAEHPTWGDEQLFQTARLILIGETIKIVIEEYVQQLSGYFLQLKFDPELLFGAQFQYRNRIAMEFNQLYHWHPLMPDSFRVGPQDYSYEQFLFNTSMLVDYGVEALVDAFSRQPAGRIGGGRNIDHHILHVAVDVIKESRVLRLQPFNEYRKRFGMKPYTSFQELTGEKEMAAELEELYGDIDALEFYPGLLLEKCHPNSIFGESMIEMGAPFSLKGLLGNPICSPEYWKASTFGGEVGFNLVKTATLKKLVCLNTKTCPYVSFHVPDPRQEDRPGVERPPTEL
BRDT BD2: Bromodomain testis-specific protein, BD2 (BRDT, Homo sapiens, UniProt Q58F21)
HTR5A: 5-hydroxytryptamine receptor 5A (HTR5A, Homo sapiens, UniProt P47898)
Sequence of UniProt P47898 (whole entry, looked up): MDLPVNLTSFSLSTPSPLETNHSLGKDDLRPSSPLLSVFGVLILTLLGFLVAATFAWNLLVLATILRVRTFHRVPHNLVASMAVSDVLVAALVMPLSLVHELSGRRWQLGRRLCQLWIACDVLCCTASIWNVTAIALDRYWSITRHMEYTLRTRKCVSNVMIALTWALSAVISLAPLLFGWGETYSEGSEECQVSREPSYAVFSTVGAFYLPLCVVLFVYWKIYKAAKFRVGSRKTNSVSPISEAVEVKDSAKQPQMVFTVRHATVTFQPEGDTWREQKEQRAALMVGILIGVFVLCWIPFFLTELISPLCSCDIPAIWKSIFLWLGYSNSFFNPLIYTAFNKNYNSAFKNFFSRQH
USP51: Ubiquitin carboxyl-terminal hydrolase 51 (USP51, Homo sapiens, UniProt Q70EK9)
Sequence of UniProt Q70EK9 (whole entry, looked up): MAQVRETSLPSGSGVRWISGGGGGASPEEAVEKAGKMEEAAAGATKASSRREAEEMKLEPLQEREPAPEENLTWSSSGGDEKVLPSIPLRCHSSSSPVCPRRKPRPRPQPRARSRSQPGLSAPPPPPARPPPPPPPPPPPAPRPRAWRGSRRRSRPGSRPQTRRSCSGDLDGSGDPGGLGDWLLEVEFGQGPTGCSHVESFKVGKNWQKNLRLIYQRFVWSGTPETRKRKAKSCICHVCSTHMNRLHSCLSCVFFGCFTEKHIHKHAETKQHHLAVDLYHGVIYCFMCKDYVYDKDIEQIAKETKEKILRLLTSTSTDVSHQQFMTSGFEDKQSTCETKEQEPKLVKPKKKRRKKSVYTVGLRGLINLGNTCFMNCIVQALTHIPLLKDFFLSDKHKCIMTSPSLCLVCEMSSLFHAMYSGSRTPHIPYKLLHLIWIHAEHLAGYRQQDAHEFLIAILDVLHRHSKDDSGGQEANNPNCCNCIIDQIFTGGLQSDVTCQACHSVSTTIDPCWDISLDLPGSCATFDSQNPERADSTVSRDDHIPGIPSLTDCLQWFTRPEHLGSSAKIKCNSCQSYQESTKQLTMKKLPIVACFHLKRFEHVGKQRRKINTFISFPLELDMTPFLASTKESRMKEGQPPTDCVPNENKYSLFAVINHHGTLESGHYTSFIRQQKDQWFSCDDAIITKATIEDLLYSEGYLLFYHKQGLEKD
MAL12: Alpha-glucosidase MAL12 (MAL12, Saccharomyces cerevisiae S288c, UniProt P53341)
Sequence of UniProt P53341 (whole entry, looked up): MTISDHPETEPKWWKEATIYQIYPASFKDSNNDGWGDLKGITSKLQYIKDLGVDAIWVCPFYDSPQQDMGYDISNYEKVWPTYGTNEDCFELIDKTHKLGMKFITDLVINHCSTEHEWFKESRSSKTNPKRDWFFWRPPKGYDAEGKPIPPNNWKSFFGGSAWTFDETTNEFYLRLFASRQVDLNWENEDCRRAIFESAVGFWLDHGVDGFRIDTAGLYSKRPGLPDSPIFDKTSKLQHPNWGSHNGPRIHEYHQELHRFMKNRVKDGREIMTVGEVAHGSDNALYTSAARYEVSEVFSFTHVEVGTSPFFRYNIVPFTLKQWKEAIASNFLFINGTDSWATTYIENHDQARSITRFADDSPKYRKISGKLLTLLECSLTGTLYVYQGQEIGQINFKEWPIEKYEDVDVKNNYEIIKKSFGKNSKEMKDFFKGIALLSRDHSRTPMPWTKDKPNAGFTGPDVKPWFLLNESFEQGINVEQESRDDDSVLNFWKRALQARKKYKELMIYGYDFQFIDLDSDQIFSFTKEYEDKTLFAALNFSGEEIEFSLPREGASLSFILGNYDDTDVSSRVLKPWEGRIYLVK
CAPN1: Calpain-1 catalytic subunit (CAPN1, Homo sapiens, UniProt P07384)
Sequence of UniProt P07384 (whole entry, looked up): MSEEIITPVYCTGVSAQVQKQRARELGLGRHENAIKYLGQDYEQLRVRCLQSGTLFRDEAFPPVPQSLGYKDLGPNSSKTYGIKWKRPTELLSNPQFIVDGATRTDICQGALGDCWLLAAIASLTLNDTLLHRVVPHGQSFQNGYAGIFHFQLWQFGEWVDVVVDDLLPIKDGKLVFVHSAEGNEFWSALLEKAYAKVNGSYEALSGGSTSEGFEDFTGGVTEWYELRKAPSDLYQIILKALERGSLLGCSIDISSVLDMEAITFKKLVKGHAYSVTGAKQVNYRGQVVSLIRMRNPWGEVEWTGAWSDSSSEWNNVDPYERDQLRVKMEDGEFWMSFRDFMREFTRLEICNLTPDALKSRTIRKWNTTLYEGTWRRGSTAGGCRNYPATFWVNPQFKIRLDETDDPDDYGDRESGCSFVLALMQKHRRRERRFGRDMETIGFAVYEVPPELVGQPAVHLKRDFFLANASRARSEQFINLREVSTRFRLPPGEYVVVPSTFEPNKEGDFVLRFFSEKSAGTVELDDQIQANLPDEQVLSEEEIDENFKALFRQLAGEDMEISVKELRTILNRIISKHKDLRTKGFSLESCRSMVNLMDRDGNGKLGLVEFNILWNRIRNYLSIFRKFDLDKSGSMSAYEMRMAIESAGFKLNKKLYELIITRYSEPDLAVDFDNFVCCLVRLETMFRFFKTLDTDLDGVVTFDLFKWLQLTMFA
BDKRB1: B1 bradykinin receptor (BDKRB1, Homo sapiens, UniProt P46663)
Sequence of UniProt P46663 (whole entry, looked up): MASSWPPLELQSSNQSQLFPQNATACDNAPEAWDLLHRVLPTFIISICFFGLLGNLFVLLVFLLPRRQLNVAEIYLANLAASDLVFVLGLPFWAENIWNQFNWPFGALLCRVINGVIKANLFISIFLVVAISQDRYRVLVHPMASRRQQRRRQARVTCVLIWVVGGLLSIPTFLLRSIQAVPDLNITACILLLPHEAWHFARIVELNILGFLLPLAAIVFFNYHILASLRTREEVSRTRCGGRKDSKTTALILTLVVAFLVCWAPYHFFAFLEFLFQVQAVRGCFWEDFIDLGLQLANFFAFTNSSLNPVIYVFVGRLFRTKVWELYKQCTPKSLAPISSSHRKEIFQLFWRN
Sequence of UniProt Q15910 (whole entry, looked up): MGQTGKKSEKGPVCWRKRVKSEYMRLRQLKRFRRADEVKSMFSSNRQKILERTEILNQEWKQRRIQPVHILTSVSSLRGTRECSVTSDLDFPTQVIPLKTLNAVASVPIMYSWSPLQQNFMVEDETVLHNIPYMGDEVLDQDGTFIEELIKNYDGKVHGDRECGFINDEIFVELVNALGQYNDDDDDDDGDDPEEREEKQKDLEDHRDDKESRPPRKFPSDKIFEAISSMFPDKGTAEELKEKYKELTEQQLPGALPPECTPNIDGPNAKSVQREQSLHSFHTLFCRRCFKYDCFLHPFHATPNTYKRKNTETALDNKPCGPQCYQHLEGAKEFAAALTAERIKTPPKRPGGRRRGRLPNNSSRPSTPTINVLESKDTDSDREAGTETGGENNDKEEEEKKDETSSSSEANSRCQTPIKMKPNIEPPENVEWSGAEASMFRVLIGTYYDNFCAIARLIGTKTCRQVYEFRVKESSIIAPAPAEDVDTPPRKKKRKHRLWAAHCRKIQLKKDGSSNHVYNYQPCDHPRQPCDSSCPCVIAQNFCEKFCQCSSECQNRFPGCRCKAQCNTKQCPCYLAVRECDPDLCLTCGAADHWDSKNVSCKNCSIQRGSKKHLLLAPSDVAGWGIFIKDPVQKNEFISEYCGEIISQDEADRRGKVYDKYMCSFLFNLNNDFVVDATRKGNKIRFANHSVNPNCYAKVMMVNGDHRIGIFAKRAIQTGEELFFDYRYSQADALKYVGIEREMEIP

| Compound | target | assay | test system | conditions | inhibition |
| --- | --- | --- | --- | --- | --- |
| Cc1ccccc1O[C@@H]1O[C@H](CO)[C@H](O)[C@H](O)[C@H]1O | Adhesin FmlH lectin domain | binding to desialylated mucin, ELISA competition | UPEC UTI89 | 100 µM | 87.3 ± 3.7% |
| COc1ccc2c(c1)C(CC(=O)NC(C(=O)NC(CCc1ccccc1)C(=O)NCc1ccc(C)cc1)C(C)O)CC2=O (centres unmarked) | PLG | enzyme activity, inhibitor |  | 100 µM | -11% |
| CS(=O)(=O)c1ccc(-n2cc(C=NN=c3[nH]c(-c4ccc([N+](=O)[O-])cc4)cs3)c(-c3ccc([N+](=O)[O-])cc3)n2)cc1 | PTGS1 | enzyme activity |  | 0.01 µM | 3.49% |
| COc1cc(-c2cn(C)c(=O)c3cnccc23)cc(OC)c1CN(C)C | BRDT BD2 |  |  | 1 µM | -54.3% |
| CO[C@@H](C)c1c(NC(=O)Nc2cnc(-n3nccn3)c(C(F)(F)F)c2)cnc2sc(C)nc12 | HTR5A | ligand displacement, radioligand |  | 10 µM | -5.9% |
| Cc1nc2c(F)cc(-c3nc(Nc4ccc(CNC(=O)CCCCCCC(=O)NO)cc4)ncc3F)cc2n1C(C)C | Phosphatidylinositol 4,5-bisphosphate 3-kinase catalytic subunit delta isoform, with p85 alpha (Pik3cd, Mus musculus, UniProt O35904) | enzyme activity |  | 1 µM, p110δ/p85α)(m mouse | 45% |
| COc1ccc(-n2cnc3c2NC(=O)CC3c2cc3c(c(OC)c2OC)OCO3)cc1 (centres unmarked) | USP51 | enzyme activity, inhibitor |  | 1 µM | 0% |
| Cn1c(=O)c(SCC(=O)NCCN2CCC(Cc3ccccc3)CC2)nc2ccccc21 | DRD2 (Homo sapiens, UniProt P14416) | enzyme activity, inhibitor |  | 10 µM | 52.2% |
| O=C1c2sc(-c3ccc(N4CCC(CO)CC4)nc3F)nc2CCN1c1cccnc1 | Glucagon receptor (GCGR, Homo sapiens, UniProt P47871) | ligand displacement, radioligand |  | 1 µM | 8% |
| COc1cc(-n2cc3cc(F)cc(C(N)=O)c3n2)cc(Cl)c1C1CC(O)(CCO)Cc2ccccc21 (centres unmarked) | PARP10 (Homo sapiens, UniProt Q53GL7) | enzyme activity, inhibitor |  | 10 µM | 0.96% |
| CN(Cc1ccc(/C=C/C(=O)NO)cc1)CC12CC3CC(CC(C3)C1)C2 | human H2 receptor | antagonist radioligand binding |  | 0.05 µM | 15% |
| CCOC(=O)c1sc2nc(-c3ccc(O)c(OC)c3)c(NCc3ccc(F)cc3)n2c1C | USP51 | enzyme activity, inhibitor |  | 1 µM | 41.6 ± 12.4% |
| COc1cc(Nc2ccn3ncc(-c4cccc(Cl)c4)c3n2)cc(OC)c1OC | crk3, with CYC6 (Leishmania mexicana, UniProt O15851) | IMAP fluorescence polarisation |  | 30 µM, with L. major CYC6 | 25% |
| NC(=O)CC[C@H](N)C(=O)N[C@@H](CC(N)=O)C(=O)N[C@@H](CC(=O)O)C(=O)N[C@@H](Cc1ccccc1)C(=O)O | ACE (Homo sapiens, UniProt P12821) | enzyme activity, inhibitor |  | 1.4 mM | 77% |
| O=[N+]([O-])c1ccc(S[C@@H]2O[C@H](CO)[C@H](O)[C@H](O)[C@H]2O)cc1 | Adhesin FmlH lectin domain | binding to desialylated mucin, ELISA competition | UPEC UTI89 | 100 µM | 72.5 ± 0.9% |
| CCNc1nc(NCC)n2c(SCC(=O)c3ccc(OC)cc3)nnc2n1 | USP51 | enzyme activity, inhibitor |  | 1 µM | 18.9 ± 7.1% |
| Cc1ccc(-c2nn(-c3ccc(S(C)(=O)=O)cc3)cc2C=NN=c2[nH]c(-c3ccc([N+](=O)[O-])cc3)cs2)cc1 | PTGS1 | enzyme activity |  | 1 µM | 27.8% |
| COc1cc(C2NCCc3cc(O)c(O)cc32)cc(OC)c1OC (centres unmarked) | MAL12 | enzyme activity, inhibitor |  | 100 µM, DMSO solvent, with: pNPG substrate | 38 ± 0.63% |
| c1ccc(OC[C@H]2CN(CCN3CCc4ccccc43)CCO2)nc1 | HTR5A | radioligand binding |  | concentration not given, with: [3H]LSD | 24.4% |
| C/C1=C\CC/C(C)=C/CC(C)(C)/C=C/C1 | Trpv1 (Rattus norvegicus, UniProt O35433, S512A/T550A/Y511A) | ion current, inhibitor, outside-out patch clamp |  | 10 µM, triple vanilloid-site mutant, with: pH 5.5 activation | 49 ± 3% |
| CS(=O)(=O)c1ccc(-n2cc(C=NN=c3[nH]c(-c4ccc([N+](=O)[O-])cc4)cs3)c(-c3ccc(Br)cc3)n2)cc1 | PTGS1 | enzyme activity |  | 0.1 µM | 17.6% |
| N#Cc1ccccc1O[C@@H]1O[C@H](CO)[C@H](O)[C@H](O)[C@H]1O | Adhesin FmlH lectin domain | binding to desialylated bovine submaxillary mucin, inhibitor, ELISA competition | UPEC UTI89 | 1 µM | 12.1 ± 6.3% |
| CC(C)Cc1ccc(-c2nn(-c3ccc(S(C)(=O)=O)cc3)cc2C=NN=c2[nH]c(-c3ccc(Br)cc3)cs2)cc1 | PTGS1 | enzyme activity |  | 1 µM | 25.9% |
| O=C1c2sc(-c3ccc(N4CCC(F)C4)nc3F)nc2CCN1c1cccnc1 (centres unmarked) | ADRA2B (Homo sapiens, UniProt P18089) | ligand displacement, radioligand |  | 1 µM | 7% |
| Cc1ccc(CNC(=O)[C@H](CCc2ccccc2)NC(=O)[C@H](CCc2ccccc2)NC(=O)Cc2cccc(Oc3ccccc3)c2)cc1 | CAPN1 | enzyme activity, inhibitor |  | 100 µM | 17% |
| COc1ncc2nc(C)n(Cc3ncc(S(N)(=O)=O)cc3F)c2c1-c1ccccc1 | HRH2 (Homo sapiens, UniProt P25021) | antagonist, cell-based |  | 10 µM | -15.5% |
| Cn1ccc2cc(-n3c(=O)[nH]c4sc5c(c4c3=O)CCCC5)ccc21 | BDKRB1 | cell-free assay, radioligand |  | 10 µM | 8% |

| Compound | target | assay | test system | conditions | inhibition |
| --- | --- | --- | --- | --- | --- |
| CS(=O)(=O)c1ccc(-n2cc(C=NN=c3[nH]c(-c4ccc(Br)cc4)cs3)c(-c3ccc(Br)cc3)n2)cc1 | PTGS1 | enzyme activity |  | 0.1 µM | 20.5% |
| CN1CC[C@@H](COc2cnc(C#N)cc2-c2ccn3nc(NC(=O)C4CC4)cc3c2)C1 | TAF1L (Homo sapiens, UniProt Q8IZX4) | enzyme activity, inhibitor |  | 1 µM | 3% |
| C[Si](C)(C)C[C@H](CN)CC(=O)O | High affinity choline transporter 1 (Rattus norvegicus, UniProt Q9JMD7) | ligand displacement, radioligand |  | 250 µM | -11% |
| COC(=O)c1cccc(-c2ccccc2O[C@H]2O[C@H](CO)[C@H](O)[C@H](O)[C@H]2O)c1 | Adhesin FmlH lectin domain | binding to desialylated mucin, ELISA competition | UPEC UTI89 | 100 µM | 13.1 ± 7.6% |
| CS(=O)(=O)c1ccc(-n2cc(C=NN=c3[nH]c(-c4ccc(Br)cc4)cs3)c(-c3ccc([N+](=O)[O-])cc3)n2)cc1 (mixture of isomers) | PTGS1 | enzyme activity |  | 100 µM | 81% |
| Cc1ccc(O[C@@H]2O[C@H](CO)[C@H](O)[C@H](O)[C@H]2O)cc1 | Adhesin FmlH lectin domain | binding to desialylated bovine submaxillary mucin, inhibitor, ELISA competition | UPEC UTI89 | 1 µM | 4.6 ± 7.9% |
| Cc1ccc(-c2nn(-c3ccc(S(C)(=O)=O)cc3)cc2C=NN=c2[nH]c(-c3ccc(Br)cc3)cs2)cc1 (mixture of isomers) | PTGS1 | enzyme activity |  | 0.1 µM | 17.6% |
| Cc1[nH]nc(-c2ccc(O)cc2O)c1-c1nc2ccccc2s1 | USP51 | enzyme activity, inhibitor |  | 1 µM | 36.2 ± 6.3% |
| OC[C@H]1O[C@@H](Oc2cccc3cccnc23)[C@H](O)[C@@H](O)[C@H]1O | Adhesin FmlH lectin domain | binding to desialylated mucin, ELISA competition | UPEC UTI89 | 100 µM | 95.1 ± 1.1% |
| Oc1ccc(C2NCCc3cc(O)c(O)cc32)cc1 (centres unmarked) | MAL12 | enzyme activity, inhibitor |  | 100 µM, DMSO solvent, with: pNPG substrate | 103.55 ± 0.09% |
| O=c1ccc2ccc(O)c(Cn3cc4ccccc4n3)c2o1 | MAL12 | inhibitor |  | 25 µM | < 0% |
| CCCc1noc(-c2ccc(-n3cnc(C(=O)NC4CC4)c3)nc2)n1 | USP51 | enzyme activity, inhibitor |  | 1 µM | 20.2 ± 4.1% |
| OC[C@H]1O[C@@H](Oc2cccc3ccccc23)[C@H](O)[C@@H](O)[C@H]1O | Adhesin FmlH lectin domain | binding to desialylated mucin, ELISA competition | UPEC UTI89 | 100 µM | 45.9 ± 3.7% |
| Cc1[nH]nc2c1N=C(c1ccccc1Cl)c1cnc(N3CCOCC3)cc1N2 | PTGER4 (Homo sapiens, UniProt P35408) | cell-free assay |  | 10 µM | 10% |
| Brc1ccccc1-c1nnc(CSc2nnnn2-c2ccccc2)o1 | HTR5A | ligand displacement, radioligand |  | 10 µM | -1% |
| C/C=C/C(=O)Nc1ccc2nc(NCCCCCN(C)C)nc(NCCCCCCN(C)C)c2c1 | EZH2 (Homo sapiens, UniProt Q15910) | enzyme activity, inhibitor, radiometric |  | 10 µM | 35% |
| COc1cc(NC2(c3ccccc3)C(=O)c3ccccc3C2=O)cc(OC)c1OC | USP51 | enzyme activity, inhibitor |  | 1 µM | 3.6 ± 1.1% |
| O=Cc1ccc(CO)n1Cc1ccc(O)cc1 | MAL12 | inhibitor |  | 100 µg/mL, 0.4167 h, with: p-nitrophenyl glucoside substrate | 41.5 ± 1.93% |
| COCC(=O)N1CCc2cc(-c3csc(NC(=O)c4cc(OC)cc(OC)c4)n3)ccc21 | rolipram binding site (PDE4), rat | radioligand binding |  | 10 µM | 8% |
| COc1cc(OC)cc(O[C@@H]2O[C@H](CO)[C@H](O)[C@H](O)[C@H]2O)c1 | Adhesin FmlH lectin domain | binding to desialylated mucin, ELISA competition | UPEC UTI89 | 100 µM | 76.4 ± 2.4% |
| CC(C)NC(=O)[C@H](CCc1ccccc1)NC(=O)[C@H](CC(=O)NCC(C)(C)C)NC(=O)CCc1ccccc1 | CAPN1 | enzyme activity, inhibitor |  | 100 µM | 15% |
| COc1cc(C(=O)Nc2ccc3c(c2)C(=O)N(C)C2=NCCN23)cc(OC)c1OC | USP51 | enzyme activity, inhibitor |  | 1 µM | 41.9 ± 12.9% |
| Cc1ccc(CNC(=O)[C@H](CCc2ccccc2)NC(=O)[C@H](CC(=O)NCC(C)(C)C)NC(=O)CCc2cccc(F)c2)cc1 | PLG | enzyme activity, inhibitor |  | 100 µM | -18% |
| CCn1cc(-c2cccc(C(F)(F)F)c2)c2sc(C(=N)NC3CCS(=O)(=O)CC3)cc2c1=O | BRDT BD2 |  |  | 1 µM | -13.4% |
| CCOc1ccc(S(=O)(=O)Nc2ccc3c(c2)C(=O)Nc2ccccc2O3)cc1 | USP51 | enzyme activity, inhibitor |  | 1 µM | 57.6 ± 15.3% |
| C[Si]1(C[C@H](CN)CC(=O)O)CCCC1 | BDKRB1 | ligand displacement, radioligand |  | 70 µM | 18% |
